Results of several laboratories.
Every numbered part comes from another study and shows a few of its results, in no order. Positions count from the first letter of the parent shown.

Sample 1 — method: aptamer microarray, sandwich; form: DNA with 2'F-ANA; medium: in vitro; tested at: 200 nM; with: Cy3 exosite-II aptamer, 400 nM; reading: higher = stronger binding; oligonucleotide: GGTTGGTGTGGTTGG
Target: Prothrombin, mature alpha-thrombin (F2, Homo sapiens, UniProt P00734)
Setting: whole 15-mer aptamer, many near background
Modification	mean fluorescence intensity
2'F-ANA at 1 2 3 4 9 11 12 13 15	199 a.u.
2'F-ANA at 2 4 5 7 9 13	53.4 a.u.
2'F-ANA at 1 2 4 8 9 12 14 15	62 a.u.
2'F-ANA at 2 3 4 6 7 9 10 12 13 15	209 a.u.
2'F-ANA at 3 5 6 9 13 14	64.8 a.u.
2'F-ANA at 2 3 4 6 14	253 a.u.
2'F-ANA at 6 9 10 13	137 a.u.
2'F-ANA at 1 3 4 7 8 9 12 14	114 a.u.
2'F-ANA at 1 3 4 6 7 10 12 14	55.5 a.u.
2'F-ANA at 2 3 4 5 7 8 12 15	249 a.u.
2'F-ANA at 1 3 5 7 9 10 11 12 14	47.1 a.u.
2'F-ANA at 2 4 5 7 9 12 14 15	48.9 a.u.
2'F-ANA at 2 3 4 6 7 8 9 10 12 13	271 a.u.
2'F-ANA at 1 3 5 6 7 8 9	73.6 a.u.
2'F-ANA at 1 2 3 4 9 10 11 12 13 14 15	53.6 a.u.
2'F-ANA at 6 7 8 9 12 15	718 a.u.
2'F-ANA at 3 5 6 8 9 11 12 13 15	140 a.u.
2'F-ANA at 1 3 5 7 8 9 13 14 15	54.3 a.u.

Sample 2 — method: protein-binding microarray; form: double-stranded DNA, one strand shown; medium: in vitro; tested at: 250 nM; setting: 60-bp whole probe; with: salmon DNA 0.4 mg/ml; baseline: random background probes; reading: higher = stronger binding; constant ends, left off below: GCCTAGCAC … GTCTTGATTCGCTTGACGCTGCTG
Target: Interferon regulatory factor 5, full length, phosphomimetic (IRF5, Homo sapiens, UniProt Q13568-2, residues 1-514, K96S/S451D/S453D/S456D/S462D)
Oligonucleotide	log fluorescence [z-score]
TCATGAATGCCCTTCCATACTGTGCTA	-0.0625
GACGGACTGGCGACTGGGGACGTGCTA	-0.684
TTAGGTATCGACTTTCCGTTAGTGCTA	4.16
GAAGAACTGGGGTTTCGAGACGTGCTA	1.26
ATTTAGTATTACCTATTTCTGTGCTAG	1.08
TCATCTTTAACATATTCTACTGTGCTA	0.884
CTAGATCTCAGTATCGATTAGTGCTAG	6.59
TCATTTTTCTTTTATTAACTGTGCTAG	1.76
TTAGGACTGGGTCTCGGATAGTGCTAG	-0.265
TTAGAACTGGGTTTCGATTAGTGCTAG	7.6
GACGGTATCCTGTTCCTGACGTGCTAG	0.0741
TGTGCTTTCCTGATGGTCCTGTGCTAG	0.185
GAAGCTTCCTCTCTGCCACTGTGCTAG	0.0726
GATGGTATCGGGACTGGGGACGTGCTA	1.76
GACGGTAGCGACACTGGGGACGTGCTA	-0.528
GAGAGTAGCTTTCTGAGGGCGTGCTAG	0.417
GACGGTTTCCTTCTCCTGAGGTGCTAG	0.733
TAAGGACTGGGGACTGGGTTAGTGCTA	-0.795
GACGATCTCACTATCGAGACGTGCTAG	2.53

Sample 3 — method: protein binding microarray; form: double-stranded DNA, one strand shown; medium: in vitro; tested at: not given; baseline: not given; reading: higher = stronger binding
Target: Histone acetyltransferase KAT6A, winged helix 1, GST fusion (KAT6A, Homo sapiens, UniProt Q92794, residues 1-85)
Setting: 8-mer, flanks averaged, mean of 2 arrays, mostly near background
Construct (chain): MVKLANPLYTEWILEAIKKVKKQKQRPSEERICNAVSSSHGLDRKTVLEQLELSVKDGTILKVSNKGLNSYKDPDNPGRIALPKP
Oligonucleotide	E-score
CTCACACC	-0.0836
GAGCCGCC	0.363
GTTGGAAA	-0.156
CGAGGTCC	0.0468
CGAGGGCA	-0.0356
ACGAACCG	0.0942
ATTCATCG	-0.0966
CGCAAGGC	0.0668
CACCATGA	0.11
CACTACTA	-0.0611
ATGCTGCG	0.112
TCACGTCA	-0.165
TACCAGGA	-0.0522
ACGCAGAT	0.11
ACGGTTAG	0.122
ATGAGCCC	0.0202
CCTGTAGA	-0.13
CTATTAAA	-0.149
GATCCGTA	0.265
AAGGTACA	-0.189
AGCGTACC	0.275

Sample 4 — target: CCNB3, cyclin fold, Cln2 fusion (human); method: yeast growth competition, sequencing; medium: yeast; setting: weak parent motif; baseline: not given; reading: higher = stronger binding
Parent: SGO1 docking peptide (human); PLAKRALKYTDEK; partner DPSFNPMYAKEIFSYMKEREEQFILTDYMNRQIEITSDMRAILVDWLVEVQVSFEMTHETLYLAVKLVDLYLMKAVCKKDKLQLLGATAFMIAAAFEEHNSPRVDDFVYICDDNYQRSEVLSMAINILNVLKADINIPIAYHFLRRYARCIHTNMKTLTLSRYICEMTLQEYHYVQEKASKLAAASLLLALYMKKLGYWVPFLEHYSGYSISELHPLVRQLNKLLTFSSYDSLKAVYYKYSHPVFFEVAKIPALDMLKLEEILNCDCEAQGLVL
Variant	normalised enrichment score
PLAKRALKYADEK [T10A]	0.358
PLAKRALAYTDEK [K8A]	0.308
PLAKRAAKYTDEK [L7A]	0.181
ALAKRALKYTDEK [P1A]	-0.0263
PLAKRALKYTAEK [D11A]	0.0215

Sample 5 — method: universal PBM; form: double-stranded DNA, one strand shown; medium: in vitro; tested at: 600 nM; reading: higher = stronger binding
Target: Sal-like protein 4, full length isoform A (SALL4, Homo sapiens, UniProt Q9UJQ4, residues 1-1053)
Sequence of UniProt Q9UJQ4 (whole entry, looked up): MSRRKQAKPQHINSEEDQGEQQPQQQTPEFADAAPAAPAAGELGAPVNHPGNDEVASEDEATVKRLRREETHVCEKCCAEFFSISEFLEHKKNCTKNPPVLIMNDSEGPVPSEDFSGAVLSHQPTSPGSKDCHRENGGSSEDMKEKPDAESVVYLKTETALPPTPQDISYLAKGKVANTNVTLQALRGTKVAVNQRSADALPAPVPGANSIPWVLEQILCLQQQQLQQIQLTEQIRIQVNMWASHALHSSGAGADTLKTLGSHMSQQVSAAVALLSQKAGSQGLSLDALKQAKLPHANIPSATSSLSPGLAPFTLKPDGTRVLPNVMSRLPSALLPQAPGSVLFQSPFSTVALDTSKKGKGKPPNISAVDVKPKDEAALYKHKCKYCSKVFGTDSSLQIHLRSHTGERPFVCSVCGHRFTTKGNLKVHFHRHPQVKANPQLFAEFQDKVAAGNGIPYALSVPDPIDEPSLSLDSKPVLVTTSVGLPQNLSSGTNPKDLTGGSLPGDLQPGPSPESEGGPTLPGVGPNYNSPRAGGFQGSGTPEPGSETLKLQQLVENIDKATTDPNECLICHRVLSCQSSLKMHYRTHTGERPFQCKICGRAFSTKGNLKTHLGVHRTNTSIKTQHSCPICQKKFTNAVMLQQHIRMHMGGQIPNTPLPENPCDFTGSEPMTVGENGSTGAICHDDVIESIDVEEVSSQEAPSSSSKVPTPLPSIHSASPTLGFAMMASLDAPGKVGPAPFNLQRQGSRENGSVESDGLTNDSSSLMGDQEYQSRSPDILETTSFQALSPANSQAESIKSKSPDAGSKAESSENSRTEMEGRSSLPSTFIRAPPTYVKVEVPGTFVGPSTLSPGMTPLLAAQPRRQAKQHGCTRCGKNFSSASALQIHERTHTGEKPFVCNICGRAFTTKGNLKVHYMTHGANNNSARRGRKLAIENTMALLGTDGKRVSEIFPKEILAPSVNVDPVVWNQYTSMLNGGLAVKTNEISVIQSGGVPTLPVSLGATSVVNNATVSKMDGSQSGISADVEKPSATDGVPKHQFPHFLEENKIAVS
Setting: 8-mer, flanks averaged, mean of replicates
Oligonucleotide	E-score
CGTGTCAC	-0.143
CGTACCAC	-0.12
CCCAATAG	-0.0018
GAACCAAA	-0.0922
AGCGTTGC	-0.235
ATGAGTAG	0.172
TCGAAGAA	0.0185
CTCAACAG	0.083
CAGAGGCG	-0.147
GACTGCGA	-0.129
ACGAGGCA	-0.0234
CGTAGTGA	-0.187
CGTGGAGA	-0.0943
GAGTACGC	-0.239
AAACGGGA	-0.0481
CACGCCGC	-0.203
CTAATTAC	0.135
ATTTTAGA	0.238
ATCCAAGG	-0.123
CCGGGCCA	-0.446
CCAGCATA	-0.00679
CGGTGTGA	-0.23
GAACACGA	0.0845
AGGTGGCA	-0.0637
CGTGCCCA	-0.124
